Measured values collected from several papers.
Numbered parts are unrelated; each lists some results of a single study. Substitutions count along the parent as printed.

Series 1 — technique: DHFR PCA, deep sequencing; medium: yeast; together with: (+)-ABA 0.0091 µM; relative to: wild-type fitted maximum; direction: higher = stronger binding
Target: ABI1, truncated, D143A, DHFR fusion (Arabidopsis thaliana)
Setting: methotrexate growth selection, single substitutions
Parent: PYL1, truncated, DHFR fusion (Arabidopsis thaliana); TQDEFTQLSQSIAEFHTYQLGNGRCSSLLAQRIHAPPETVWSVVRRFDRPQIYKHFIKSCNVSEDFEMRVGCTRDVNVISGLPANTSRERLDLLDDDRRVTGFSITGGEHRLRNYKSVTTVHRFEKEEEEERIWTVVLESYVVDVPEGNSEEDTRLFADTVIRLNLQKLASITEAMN; partner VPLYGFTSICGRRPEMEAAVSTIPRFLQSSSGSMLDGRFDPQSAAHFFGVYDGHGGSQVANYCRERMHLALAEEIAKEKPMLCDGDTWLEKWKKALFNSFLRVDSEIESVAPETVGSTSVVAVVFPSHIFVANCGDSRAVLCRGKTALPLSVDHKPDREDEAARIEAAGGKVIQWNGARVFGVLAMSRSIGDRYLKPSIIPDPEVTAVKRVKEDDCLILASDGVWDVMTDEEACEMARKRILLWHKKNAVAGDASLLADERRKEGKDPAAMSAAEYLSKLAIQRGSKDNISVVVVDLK
`E128G`: “relative binding score” 71.6%.
`T173Y` — result for “relative binding score”: -0.698%.
Under “relative binding score”, `T160D` is recorded as -4.47%.
`L138M` — result for “relative binding score”: 7.03%.
Under “relative binding score”, `L156F` is recorded as 9.16%.
Under “relative binding score”, `N114R` is recorded as 4%.
`S63F`: “relative binding score” -3.32%.

Series 2 — technique: protein-binding microarray; form: double-stranded DNA, one strand shown; medium: in vitro; concentration: 250 nM; setting: 60-bp whole probe; together with: salmon DNA 0.4 mg/ml; relative to: random background probes; direction: higher = stronger binding; constant ends, left off below: GCCTAGCAC … GTCTTGATTCGCTTGACGCTGCTG
Target: Interferon regulatory factor 5, full length, phosphomimetic (IRF5, Homo sapiens, UniProt Q13568-2, residues 1-514, K96S/S451D/S453D/S456D/S462D)
With `TTAGATCTCAGTATCGATCAGTGCTAG` the log fluorescence was 5.67 z-score.
For `GACGGTCTCGGTATCGGGTCGTGCTAG`, the log fluorescence was 1.86 z-score.
`GACGAACTGGGGACTGAAGACGTGCTA` has a log fluorescence of -0.266 z-score.
The log fluorescence of `TTAGGTATCTGTTTCGGTTAGTGCTAG` is reported as 9.38 z-score.
For `TCATCTCTAATTTTGAGACTGTGCTAG`, the log fluorescence was 0.328 z-score.
The log fluorescence of `TGGATGGTCCTGGTTTCATGGGTGCTA` is reported as 0.236 z-score.
`TTAGGTATCGGTCTCGGTGAGTGCTAG` gave a log fluorescence of 6.68 z-score.
With `TTAGGTAACGGGTATCGGTTAGTGCTA` the log fluorescence was 4.13 z-score.
The log fluorescence of `TCACCTTTCGGAATACCACTGTGCTAG` is reported as 5.55 z-score.
For `GTGTGTGTCTGATTATTTACGTGCTAG`, the log fluorescence was 0.127 z-score.
For `GACGGACTGGGTTGCGGGACGTGCTAG`, the log fluorescence was -0.549 z-score.
With `TCCTATGTCATTTACATTTTGTGCTAG` the log fluorescence was 0.281 z-score.
`GACGAACTGGGGATTCGAGACGTGCTA` has a log fluorescence of -0.623 z-score.

Series 3 — target: DBP, bZIP domain (human); technique: DHFR protein complementation; medium: yeast; relative to: wild-type JUN-FOS pair; direction: higher = stronger binding
Setting: single substitutions, most at no-binding floor
Parent: JUN, bZIP domain (human); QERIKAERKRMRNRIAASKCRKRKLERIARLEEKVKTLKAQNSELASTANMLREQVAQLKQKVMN; partner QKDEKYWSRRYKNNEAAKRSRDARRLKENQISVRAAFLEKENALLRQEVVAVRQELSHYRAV
The binding fitness of `N42S` is reported as -1.54 natural log.
The binding fitness of `A29Q` is reported as -1.49 natural log.
For `V56F`, the binding fitness was -1.49 natural log.
`M51R` has a binding fitness of -1.38 natural log.
`A40F` has a binding fitness of -1.54 natural log.
`E44A` has a binding fitness of -1.49 natural log.
`V56G` gave a binding fitness of -1.47 natural log.
The binding fitness of `M51Q` is reported as -1.46 natural log.
The binding fitness of `A57G` is reported as -1.43 natural log.
`R30P` has a binding fitness of -1.48 natural log.
The binding fitness of `S47T` is reported as -1.4 natural log.
With `A49D` the binding fitness was -1.56 natural log.
With `A29C` the binding fitness was -1.54 natural log.

Further values, each from its own experiment
`PhoQ, residues 284 288 289 292 302 303 SLKLQV` gave a fold induction of 8.7 (PhoP, residues 12 14 15 18 19 FWNTL (Escherichia coli, UniProt P23836); Sort-seq, item: YFP reporter; E. coli; PhoQ-PhoP variant library, together with: 10 µM Mg2+; relative to: high Mg2+ state, higher = stronger signaling).

Repeated from above (series 2):
`GACGAACTGGGGACTGAAGACGTGCTA` has a log fluorescence of -0.266 z-score.
For `GACGGTCTCGGTATCGGGTCGTGCTAG`, the log fluorescence was 1.86 z-score.
The log fluorescence of `TCACCTTTCGGAATACCACTGTGCTAG` is reported as 5.55 z-score.
